Values quoted from earlier work, collected from citations in different studies.
Numbered parts are unrelated; values within a part may stem from several laboratories.

Series 1
Organism: Cryptosporidium parvum
Effect on: parasite growth
Method: high-throughput screen
Tested at: concentration not given
Measurement: antiparasitic activity
Oc1c(Cl)cc(Cl)c2cccnc12: active
Cc1cnc(C(=O)NCCc2ccc(S(=O)(=O)NC(=O)NC3CCCCC3)cc2)cn1: active
CC[C@H](C)C(=O)O[C@H]1CCC=C2C=C[C@H](C)[C@H](CC[C@@H]3C[C@@H](O)CC(=O)O3)[C@H]21: active
CC(=O)O[C@@]12CO[C@@H]1C[C@H](O)[C@@]1(C)C(=O)[C@H](O)C3=C(C)[C@@H](OC(=O)[C@H](O)[C@@H](NC(=O)OC(C)(C)C)c4ccccc4)C[C@@](O)([C@@H](OC(=O)c4ccccc4)[C@H]21)C3(C)C: active
O=c1cnn([C@@H]2O[C@H](CO)[C@@H](O)[C@H]2O)c(=O)[nH]1: active
Oc1c(Cl)cc(Cl)c(Cl)c1Cc1c(O)c(Cl)cc(Cl)c1Cl: active
C[C@H]1O[C@@H](O[C@H]2[C@@H](O)C[C@H](O[C@H]3[C@@H](O)C[C@H](O[C@H]4CC[C@@]5(C)[C@H](CC[C@@H]6[C@@H]5C[C@@H](O)[C@]5(C)[C@@H](C7=CC(=O)OC7)CC[C@]65O)C4)O[C@@H]3C)O[C@@H]2C)C[C@H](O)[C@@H]1O: active
COC(=O)C[C@](O)(CCCC(C)(C)O)C(=O)O[C@@H]1C(OC)=C[C@]23CCCN2CCc2cc4c(cc2[C@H]13)OCO4: active
COc1ccc2c(c1)c(CC(=O)O)c(C)n2C(=O)c1ccc(Cl)cc1: active
CN(C)c1ccc(O)c2c1C[C@H]1C[C@H]3[C@H](N(C)C)C(O)=C(C(N)=O)C(=O)[C@@]3(O)C(O)=C1C2=O: active
[H]/N=C(/NCCCCC)N/N=C/c1c[nH]c2ccc(OC)cc12: active
C[C@H]1c2cccc(O)c2C(=O)C2=C(O)[C@]3(O)C(=O)C(C(N)=O)=C(O)[C@@H](N(C)C)[C@@H]3[C@@H](O)[C@@H]21: active

Other studies, line by line
CCCCCCCCNC(C)C(O)c1ccc(SC(C)C)cc1 (stereo not drawn)  mRNA fold change (MCF7; microarray, refers to: BTG1; concentration not given; relative to: DMSO): 1.7
Cn1cnc2c(F)c(Nc3ccc(Br)cc3Cl)c(C(=O)NOCCO)cc21  Cmax (healthy human volunteers; oral, 25 mg single dose): 409 ng/mL
COc1ccc2c(O[C@@H]3C[C@H]4C(=O)N[C@]5(C(=O)O)CC5/C=C\CCCCC[C@H](NC(=O)OC5CCCC5)C(=O)N4C3)cc(-c3csc(NC(=O)C(C)C)n3)nc2c1C (stereo partly drawn)  EC50 (HCV NS3; viral replication, cell-based; hepatitis C virus, genotype 1a): 4.6 nM
CN1CCC(COc2cnc(-c3cccc(Cn4nc(-c5cccc(C#N)c5)ccc4=O)c3)nc2)CC1  radioactivity as metabolites (human; dose not given, mass balance study): 48%
N#Cc1ccc(C(c2ccc(C#N)cc2)n2cncn2)cc1  IC50 (dopamine transporter): > 10000 nM
CN(C)CC/C=C1/c2ccccc2Sc2ccc(Cl)cc21  mRNA fold change (MCF7; microarray, refers to: BHLHE40; concentration not given; relative to: DMSO): 4.22
Cc1ccc(-c2cnc([C@@]3(O)CC[C@H](C(=O)O)C(C)(C)C3)s2)cc1Nc1cccc(C(F)(F)F)n1  IC50 (SYK (human); enzyme activity): 4700 nM
CN(C)CCC=C1c2ccccc2CCc2ccccc21  Ki (dopamine D2 receptor; binding): 266 nM
CCCCCN1C[C@H](O)[C@@H](O)[C@H](O)[C@@H]1CO  inhibition (sucrase; concentration not given): inactive
COc1ccc(-c2nn3c(-c4ccco4)nnc3s2)cc1OC  IC50 (DCTPP1): 19 nM
CC[C@H](C)[C@H](NC(=O)[C@H](Cc1ccccc1)NC(=O)[C@H](CCC(=O)O)NC(=O)[C@H](CCCCNC(=O)COCCOCCNC(=O)COCCOCCNC(=O)CC[C@H](NC(=O)CCCCCCCCCCCCCCCCC(=O)O)C(=O)O)NC(=O)[C@H](C)NC(=O)[C@H](C)NC(=O)[C@H](CCC(N)=O)NC(=O)CNC(=O)[C@H](CCC(=O)O)NC(=O)[C@H](CC(C)C)NC(=O)[C@H](Cc1ccc(O)cc1)NC(=O)[C@H](CO)NC(=O)[C@H](CO)NC(=O)[C@@H](NC(=O)[C@H](CC(=O)O)NC(=O)[C@H](CO)NC(=O)[C@@H](NC(=O)[C@H](Cc1ccccc1)NC(=O)[C@@H](NC(=O)CNC(=O)[C@H](CCC(=O)O)NC(=O)C(C)(C)NC(=O)[C@@H](N)Cc1cnc[nH]1)[C@@H](C)O)[C@@H](C)O)C(C)C)C(=O)N[C@@H](C)C(=O)N[C@@H](Cc1c[nH]c2ccccc12)C(=O)N[C@@H](CC(C)C)C(=O)N[C@H](C(=O)N[C@@H](CCCNC(=N)N)C(=O)NCC(=O)N[C@@H](CCCNC(=N)N)C(=O)NCC(=O)O)C(C)C  inter-compartmental clearance (human reference subject; body weight 85 kg, population PK model): 0.304 L/h
C=CC(=O)Nc1cc(Nc2ncc(C(=O)OC(C)C)c(-c3cn(C)c4ccccc34)n2)c(OC)cc1N(C)CCN(C)C  IC50 (human BLK; kinase activity, inhibitor): < 2 nM
